Measured values collected from several papers.
A part holds a random share of what one study measured.

Study 1
Target: Cyclic AMP-dependent transcription factor ATF-1 (ATF1, Homo sapiens, UniProt P18846, residues 1-271, full length assumed)
Technique: protein-binding microarray
Molecule type: double-stranded DNA, one strand shown
Medium: in vitro
Tested at: not given
Setting: k-mer, scored over probes, only values ≥0.25
Reading: higher = stronger binding
Residues (chain): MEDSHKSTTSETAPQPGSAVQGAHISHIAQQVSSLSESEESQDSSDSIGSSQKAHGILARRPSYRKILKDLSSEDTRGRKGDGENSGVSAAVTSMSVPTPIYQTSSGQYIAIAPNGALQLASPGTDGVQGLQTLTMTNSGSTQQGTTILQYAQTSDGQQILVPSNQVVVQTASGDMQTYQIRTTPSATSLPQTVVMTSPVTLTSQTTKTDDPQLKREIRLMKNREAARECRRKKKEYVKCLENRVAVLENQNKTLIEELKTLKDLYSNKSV
Sequence	E-score
ACATACA	0.265
GTCACTA	0.343
GTCGTGA	0.265
ACGTAAT	0.46
ACGTAGT	0.398
CGTGTAA	0.26
CAAACGA	0.252
GTAGTGA	0.252
ACGTGAT	0.361
ATGACAT	0.3
GACGTGA	0.382
CTCGTCA	0.4
ACGTAGC	0.415
AACGTAA	0.361
TACGTAA	0.455
ACGTCGC	0.282

Study 2
Target: Sal-like protein 4, full length isoform A (SALL4, Homo sapiens, UniProt Q9UJQ4, residues 1-1053)
UniProt Q9UJQ4, sequence (whole entry, looked up): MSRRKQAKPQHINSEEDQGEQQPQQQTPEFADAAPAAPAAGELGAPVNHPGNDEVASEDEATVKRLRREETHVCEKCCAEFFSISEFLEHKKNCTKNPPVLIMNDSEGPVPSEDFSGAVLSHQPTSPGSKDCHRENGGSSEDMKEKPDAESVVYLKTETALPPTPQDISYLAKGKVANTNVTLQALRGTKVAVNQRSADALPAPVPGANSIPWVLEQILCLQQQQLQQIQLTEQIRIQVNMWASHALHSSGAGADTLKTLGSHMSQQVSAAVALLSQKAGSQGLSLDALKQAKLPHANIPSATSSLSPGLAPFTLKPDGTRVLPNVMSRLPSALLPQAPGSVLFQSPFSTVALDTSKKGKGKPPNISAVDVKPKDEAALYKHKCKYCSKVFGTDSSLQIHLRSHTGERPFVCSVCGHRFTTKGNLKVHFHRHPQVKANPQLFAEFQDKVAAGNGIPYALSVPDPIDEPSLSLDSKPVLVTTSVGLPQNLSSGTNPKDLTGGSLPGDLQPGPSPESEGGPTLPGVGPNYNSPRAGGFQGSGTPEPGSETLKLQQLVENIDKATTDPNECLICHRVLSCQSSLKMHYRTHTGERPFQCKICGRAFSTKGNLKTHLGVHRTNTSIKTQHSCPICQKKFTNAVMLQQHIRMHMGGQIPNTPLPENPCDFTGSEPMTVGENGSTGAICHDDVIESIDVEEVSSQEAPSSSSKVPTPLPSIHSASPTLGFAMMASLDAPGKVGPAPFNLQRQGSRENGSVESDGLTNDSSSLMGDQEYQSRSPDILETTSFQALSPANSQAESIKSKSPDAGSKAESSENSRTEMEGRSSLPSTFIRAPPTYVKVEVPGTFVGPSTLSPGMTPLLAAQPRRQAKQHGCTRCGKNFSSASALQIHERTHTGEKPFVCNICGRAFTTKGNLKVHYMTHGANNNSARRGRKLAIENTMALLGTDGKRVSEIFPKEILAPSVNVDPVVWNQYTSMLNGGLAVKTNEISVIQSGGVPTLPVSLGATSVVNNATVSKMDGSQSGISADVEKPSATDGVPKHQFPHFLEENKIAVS
Technique: universal PBM
Molecule type: double-stranded DNA, one strand shown
Medium: in vitro
Tested at: 600 nM
Setting: 8-mer, flanks averaged, mean of replicates
Reading: higher = stronger binding
Sequence	E-score
AGCGCTTC	-0.00409
AGGTATCG	0.0308
ATAGCGCG	0.0598
CCAACCAG	-0.206
AGTAGAAC	0.166
GGTCAGCA	-0.0672
ACTTTAAG	0.149
CAACGAAC	-0.0587
ATGTAACC	0.0455
ATGGCCTG	-0.238
AGATGAGG	-0.182
CGAACCTC	-0.0204
CCACAGTC	-0.228
ACGGTGCT	-0.199
CGCTCCTC	-0.34
CCGACCCC	-0.362
CAACCGGG	-0.312
ACACCGAA	-0.0855
AGTTTCCC	-0.197
GACTGATC	0.00806
AGACTGCC	-0.151
ACAATGTC	0.0711
AGCGGCGG	-0.308

Study 3
Target: RNA binding protein fox-1 homolog 2, RRM domain, GST-SBP tag (RBFOX2, Homo sapiens, UniProt O43251-10, residues 100-194)
Technique: RNA Bind-n-Seq
Molecule type: RNA
Medium: in vitro
Tested at: 365 nM
Setting: natural RNA segment, single round, ends assumed
Reference: no-protein control
Reading: higher = stronger binding
Target sequence (chain): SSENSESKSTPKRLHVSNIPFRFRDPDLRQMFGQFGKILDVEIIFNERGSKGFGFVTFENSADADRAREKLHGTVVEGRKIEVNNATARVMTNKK
Sequence	RBNS enrichment (R)
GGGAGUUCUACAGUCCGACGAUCGUAACUCCACACCCAGGAGGGUAAGCCACUUUAUUAUCAUGCUUUGGGGCUGUGCUUAAGAAUUUAAGCUCUGUUUUAAAGCCGAAGAAGAAAACAUUUGAAUUUACCUUUGGAAUUCUCGGGUGCCAA	0.213
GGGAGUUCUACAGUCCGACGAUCGUGAGCUGUCUUCAUUUCUCUGUGCUAUGUCCAGAUGUGGGGUUGCUGCAGCCGGGGUUCUAUGGCAAGUGCCAGUUGCAGGGCUAACCUUGUGCAACGUUCCCCAACACUGGAAUUCUCGGGUGCCAA	1.36
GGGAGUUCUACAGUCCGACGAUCGGAUGAAGCAUAGCAGGAAGACCGAGGAGGAGAGCCCUGCAGCAGCUUCCCGCCAGUUUCUCUCAGUUUGCCAAAGAGACCAUUGAAUGUUUUUGAAACCAAAGAGCACAUGGAAUUCUCGGGUGCCAA	0.869
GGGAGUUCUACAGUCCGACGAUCAACAAUAGCUGAAUGUCUUGGUAUUUAAAGUGUAAAUUAUCUAUGGCUUUGCCAAAUGAAGGGAGGGGGUGGGCAAGACAUGGAACUCCCCGGUCCCCACACACUUCGCAUGGAAUUCUCGGGUGCCAA	3.07
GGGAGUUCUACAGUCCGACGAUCUAGUGUAAGGCUGCAUUGUGGGUUUGGGGGAAAUGUAAAUAAUUUUCUGUGUAAAACAAAUUCAUAGGAUCUGAUUUGCUCAGAGUAUUAUUCAAGAAUGUAUUAAUAAGUGGAAUUCUCGGGUGCCAA	1.52
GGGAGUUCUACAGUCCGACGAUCACCCAGGCCGCAGAGGGAGCAGGAAGAGAUGCUGAUAGUUUGAUCUAGAAACCAGCAGCUACUGGCUCAAAUUCAGGUUCUGGCGUCAAAUAGCGACAUUUCCAGUUUCUUGGAAUUCUCGGGUGCCAA	0.251
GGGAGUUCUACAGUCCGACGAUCCUCUAGUCAUCCAGAAACCCACUCCCUUCUGAAGCCCCUCCUUGGGCCGGGUUGUAUCAGGAGGAUUCAACCCCGCUAACAUGUGGGGUGCCCUCUGUAGGCCUUCACACUGGAAUUCUCGGGUGCCAA	0.34
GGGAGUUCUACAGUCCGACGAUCGGACAGAGGCCCAAUGGGUGAAGGCUUUGAAGAGCACACAGAAGCCCCUGGCCCCCCACGAGAGCUGGAGAGCCAUGUAUAUGGCUUCAAAGCCACCUACGGCAGGGACAUGGAAUUCUCGGGUGCCAA	0.4
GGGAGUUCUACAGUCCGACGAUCUACUCAGAACUCAGGAGCCUUGCCCAGCCGCUCAGUCACCUGCCUGCUGUGCUUCCGGGCAGUGCCAGGCACUCCCUUGUGGGGCUCAUGCUCCUUCUACCUACCGGUCAUGGAAUUCUCGGGUGCCAA	0.24
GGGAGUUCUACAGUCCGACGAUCAGAGGGACUUCGAUGCCAAACCAGACUCGGGUCCCCUCCUGCUUCCCUUCCCCACUUAUCCCCCAAGUGCCUUCCCUCAUGCCUGGGCCGGCCUGACCCGCAAUGGGCAGUGGAAUUCUCGGGUGCCAA	0.36
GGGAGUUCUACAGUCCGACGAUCGUGAACAACAGUUGGUUUAAAAUAUGAGGGGCAAGGAGGAGGAUGCAUUUCAAAAGCUUGAUUGAUGUGUUCAGAGCUAAAUUAAGAGGAGUUUUCAGAUCAAAAACUGGUGGAAUUCUCGGGUGCCAA	5.7
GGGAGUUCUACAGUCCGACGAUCCACACCCUUUCCCUCACCUGUACUAGAGCUUGGCUUGAGGAAGGAAUGAAGGAGCAGCCUUCUGUUUACUAGAAAAAUGUUUGGGUUCACACGUGGUGCUGCUGCCCUGGUGGAAUUCUCGGGUGCCAA	0.465

Study 4
Target: RING finger protein unkempt homolog, zinc fingers 1-6, GST-SBP tag (UNK, Homo sapiens, UniProt Q9C0B0, residues 30-357)
Technique: RNA Bind-n-Seq
Molecule type: RNA
Medium: in vitro
Tested at: not given
Setting: RNA with constant flanks, human-mouse chimeric sites, ends assumed
Reference: input RNA pool
Reading: higher = stronger binding
Construct (chain): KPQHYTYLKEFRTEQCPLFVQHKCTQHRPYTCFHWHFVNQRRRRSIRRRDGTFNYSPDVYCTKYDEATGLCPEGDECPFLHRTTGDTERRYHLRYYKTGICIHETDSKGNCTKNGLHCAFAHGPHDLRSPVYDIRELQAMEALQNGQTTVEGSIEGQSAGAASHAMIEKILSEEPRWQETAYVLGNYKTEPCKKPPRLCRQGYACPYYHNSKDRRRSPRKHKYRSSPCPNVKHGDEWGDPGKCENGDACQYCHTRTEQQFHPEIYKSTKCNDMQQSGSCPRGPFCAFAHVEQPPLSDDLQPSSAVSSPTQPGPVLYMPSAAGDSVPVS
Sequence	bound/input enrichment [ratio]
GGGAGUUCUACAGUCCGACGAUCUAACCACAUCAAGAUGGUUGGAAAGCUGAAGCAGAACUUACUCUUGGCGUGUCUGGUGAUUAGUUCUGUGACCGUGUUUUACCUGGGCCAGCAUGCCAUGGAAUGCCAUCACCGAAUAGACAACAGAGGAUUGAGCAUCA	0.167
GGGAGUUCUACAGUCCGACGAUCCAGCCUCAGAGCCCAGACUUCCUGGAUAUUACCAACCCUAAAGCGGUAUUAGAAAAUGCACUUAGGAACUUCGCCUGUCUGACGACUGGAGAUGUGAUUGCUAUCAACUAUAAUGAAAAGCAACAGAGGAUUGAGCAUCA	0.76
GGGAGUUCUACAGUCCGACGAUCUGGGCACUCUAUCAGAUAUAUUAAUUUUUUAAUGUAGAUAAAAUUUCAAAAAUGAAUGGCUACUUUACACGUUUAACUAGGGUUUUACUAUAUAUGUGUACAUAUGUAUAUAUAUAUAUACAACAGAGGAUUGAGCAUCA	23.4
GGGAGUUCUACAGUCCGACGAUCCUGUGUGUGCUGAAUAAAUGGCUUGUAAAGAAGUUUUUCCAAGCUGUAACCCAUGCUUCCCUUAGAGUUGCUGCAAAAUGUUCUUCCUGAUAUUGAUUUUAUUUGUUCUGACUCUCCCUCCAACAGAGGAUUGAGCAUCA	0.707
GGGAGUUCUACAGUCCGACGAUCAGAUUCCCCCUCCUGAGGCCUUCUCCAAAGUUGGAGUCUCUUACAGAUGCCUCAUCCCCUGUUAGCGUUUUAGUUUGGACCACCCAGCCUUGGACAAUUCCAGCCAACCAGGCAAUUUGCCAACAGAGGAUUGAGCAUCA	1.34
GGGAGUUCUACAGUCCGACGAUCAACUUCGUGCAUCGGUUUCCCUUUGUAGCUGUUUCAAUUGGCUUCCUUGUGAAUAAAGAGAUGGAGUUUGGAAUUGUGUACAGUUGUGUGGAAGAUAAGAUGUACACUGCCAGAAAAGGGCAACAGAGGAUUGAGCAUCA	0.398
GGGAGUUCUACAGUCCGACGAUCAAAGAGAAACUAAAGCAACUAAUAGAGAAGAGGAUUGGCAAAGAGAAAUUUCAUAGAAAACUAGGAUUUUAUUAGCAACAUGAGUUAUAUUCCAGAGCGUCUCAGAAACCCCAGCCAAACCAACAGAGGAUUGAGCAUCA	22.2
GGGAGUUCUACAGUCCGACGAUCUUCAAAGGCUGUGUUAUCUGUGUCAUUUCAUAAGUAACUCUGGGGGAGGGAAAUUCUGUUCUUUUGUUUUUAGUUUUCCCAAAUGAAGCCAAAGUGUGUGUUGAAGAACUGAGAAAAAAUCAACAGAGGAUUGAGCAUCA	0.528
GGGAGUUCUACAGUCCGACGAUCAGGAGGAGGUUAAAGGGUGAGAGUGGGGUGGAAGACUGUGUCAUGGCUCUGGAGACACUGUUCAGUGUCCUGCUUUCUCUUUGCAGACUGAUGGCCCCUUACACGCCCUUUCUGACUGAGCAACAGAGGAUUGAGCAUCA	0.0748
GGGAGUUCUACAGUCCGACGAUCGAAUCCUACUCAGGCGGAUUUUGCAACACCAAGCUCACAGCAGCAGCUCCAUAGUCACAGUAGGGUAGUUUUGGGGCUCUGUGGCCAUGGUUUUACUCACAUGCAGGUUUGGAAAAUGUACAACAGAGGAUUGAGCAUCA	1.02
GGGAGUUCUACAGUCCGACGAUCUGACAAGGGCACUGCAGAGCCAUGCCUUUCCUUGACAUCCAGAAAAGGCUGGGCAUCAGCCUGGACCGGCACUUUAUGUUCCUAAGCGCAGAACAGCCCUAUAAGAAGGCUGGUCGAUGCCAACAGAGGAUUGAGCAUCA	0.0634

Some of these lines once more (study 2):
Sequence	E-score
CAACCGGG	-0.312
CAACGAAC	-0.0587
ACGGTGCT	-0.199
CGCTCCTC	-0.34
AGCGCTTC	-0.00409
CCAACCAG	-0.206
ACTTTAAG	0.149
AGTAGAAC	0.166
AGCGGCGG	-0.308
AGTTTCCC	-0.197
ATGTAACC	0.0455
